# Measured values from different studies.
# Lines come from different studies, so protocols differ. Several values in a cell are separate wells, animals, samples, runs or records. Numbers after ± are the reported error. Where no end group is shown, it is not given here. [ ]: non-standard residue; d: D form.
# HLA class I histocompatibility antigen, A alpha chain allele A*24:02: HLA class I histocompatibility antigen, A alpha chain, allele A*24:02 (Homo sapiens, UniProt P04439)
# SCRIB PDZ3 domain: Protein scribble homolog, PDZ3 domain (SCRIB, Homo sapiens, UniProt Q14160)
# Chain of UniProt Q14160 (whole entry, looked up): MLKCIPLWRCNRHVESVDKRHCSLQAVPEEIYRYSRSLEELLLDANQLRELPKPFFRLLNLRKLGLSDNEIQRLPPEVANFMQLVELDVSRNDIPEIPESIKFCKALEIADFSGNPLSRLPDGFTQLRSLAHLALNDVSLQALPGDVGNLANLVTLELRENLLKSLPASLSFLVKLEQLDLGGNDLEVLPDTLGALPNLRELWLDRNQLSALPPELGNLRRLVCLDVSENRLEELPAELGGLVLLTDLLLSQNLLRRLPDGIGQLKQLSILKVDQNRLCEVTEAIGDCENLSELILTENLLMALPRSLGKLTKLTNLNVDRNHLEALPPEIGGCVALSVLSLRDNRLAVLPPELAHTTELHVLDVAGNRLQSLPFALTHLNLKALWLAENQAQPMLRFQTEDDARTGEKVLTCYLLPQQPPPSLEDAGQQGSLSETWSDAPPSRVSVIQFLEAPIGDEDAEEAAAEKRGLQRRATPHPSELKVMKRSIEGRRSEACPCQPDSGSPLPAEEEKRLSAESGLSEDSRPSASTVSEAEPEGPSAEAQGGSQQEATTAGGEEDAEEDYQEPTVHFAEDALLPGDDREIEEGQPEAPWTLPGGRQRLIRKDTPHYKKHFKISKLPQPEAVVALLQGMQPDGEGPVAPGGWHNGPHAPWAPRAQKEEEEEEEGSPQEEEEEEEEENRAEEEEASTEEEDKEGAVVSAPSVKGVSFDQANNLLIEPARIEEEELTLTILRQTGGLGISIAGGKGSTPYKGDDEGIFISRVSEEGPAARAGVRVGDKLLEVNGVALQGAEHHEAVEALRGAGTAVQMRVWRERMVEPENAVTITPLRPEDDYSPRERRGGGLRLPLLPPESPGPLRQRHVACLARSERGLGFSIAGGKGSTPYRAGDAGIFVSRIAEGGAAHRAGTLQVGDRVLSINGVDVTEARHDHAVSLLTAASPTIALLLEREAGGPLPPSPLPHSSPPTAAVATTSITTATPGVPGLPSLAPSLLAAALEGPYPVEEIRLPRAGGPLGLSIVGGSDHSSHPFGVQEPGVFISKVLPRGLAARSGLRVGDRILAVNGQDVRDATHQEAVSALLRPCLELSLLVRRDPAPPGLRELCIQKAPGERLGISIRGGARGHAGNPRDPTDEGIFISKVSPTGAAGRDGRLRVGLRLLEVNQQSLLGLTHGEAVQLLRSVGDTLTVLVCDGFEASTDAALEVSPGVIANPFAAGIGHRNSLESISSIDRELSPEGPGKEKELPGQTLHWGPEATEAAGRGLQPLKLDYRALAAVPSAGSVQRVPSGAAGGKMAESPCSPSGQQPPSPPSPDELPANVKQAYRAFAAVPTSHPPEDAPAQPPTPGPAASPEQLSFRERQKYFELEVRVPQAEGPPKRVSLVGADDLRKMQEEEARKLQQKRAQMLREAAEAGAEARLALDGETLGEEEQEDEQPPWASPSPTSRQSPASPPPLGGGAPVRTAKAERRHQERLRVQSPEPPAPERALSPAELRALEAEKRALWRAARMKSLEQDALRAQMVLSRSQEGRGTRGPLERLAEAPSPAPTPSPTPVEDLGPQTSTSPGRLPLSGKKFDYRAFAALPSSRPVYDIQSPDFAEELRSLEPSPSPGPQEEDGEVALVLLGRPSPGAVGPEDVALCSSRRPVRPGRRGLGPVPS
# HLA class I histocompatibility antigen, A alpha chain allele A*02:01: HLA class I histocompatibility antigen, A alpha chain, allele A*02:01 (Homo sapiens, UniProt P04439)
# Chain of UniProt Q64663 (whole entry, unmodified, looked up): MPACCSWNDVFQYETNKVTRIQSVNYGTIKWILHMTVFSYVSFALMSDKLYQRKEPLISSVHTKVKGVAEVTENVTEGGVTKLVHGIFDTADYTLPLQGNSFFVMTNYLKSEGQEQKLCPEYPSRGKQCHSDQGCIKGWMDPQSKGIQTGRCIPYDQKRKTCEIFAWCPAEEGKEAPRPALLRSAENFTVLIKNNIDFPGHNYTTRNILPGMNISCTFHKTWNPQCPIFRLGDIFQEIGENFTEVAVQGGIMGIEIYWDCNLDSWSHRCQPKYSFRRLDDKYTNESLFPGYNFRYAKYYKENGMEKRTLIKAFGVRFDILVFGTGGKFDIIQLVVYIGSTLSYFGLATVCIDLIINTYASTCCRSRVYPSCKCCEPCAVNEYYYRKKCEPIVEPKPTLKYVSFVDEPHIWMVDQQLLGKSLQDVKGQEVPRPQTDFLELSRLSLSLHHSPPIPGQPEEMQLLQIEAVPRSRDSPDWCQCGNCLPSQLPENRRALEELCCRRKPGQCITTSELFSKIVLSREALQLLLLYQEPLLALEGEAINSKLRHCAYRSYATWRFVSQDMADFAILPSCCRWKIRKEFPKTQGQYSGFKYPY
# Chain of UniProt P48067 (whole entry, looked up): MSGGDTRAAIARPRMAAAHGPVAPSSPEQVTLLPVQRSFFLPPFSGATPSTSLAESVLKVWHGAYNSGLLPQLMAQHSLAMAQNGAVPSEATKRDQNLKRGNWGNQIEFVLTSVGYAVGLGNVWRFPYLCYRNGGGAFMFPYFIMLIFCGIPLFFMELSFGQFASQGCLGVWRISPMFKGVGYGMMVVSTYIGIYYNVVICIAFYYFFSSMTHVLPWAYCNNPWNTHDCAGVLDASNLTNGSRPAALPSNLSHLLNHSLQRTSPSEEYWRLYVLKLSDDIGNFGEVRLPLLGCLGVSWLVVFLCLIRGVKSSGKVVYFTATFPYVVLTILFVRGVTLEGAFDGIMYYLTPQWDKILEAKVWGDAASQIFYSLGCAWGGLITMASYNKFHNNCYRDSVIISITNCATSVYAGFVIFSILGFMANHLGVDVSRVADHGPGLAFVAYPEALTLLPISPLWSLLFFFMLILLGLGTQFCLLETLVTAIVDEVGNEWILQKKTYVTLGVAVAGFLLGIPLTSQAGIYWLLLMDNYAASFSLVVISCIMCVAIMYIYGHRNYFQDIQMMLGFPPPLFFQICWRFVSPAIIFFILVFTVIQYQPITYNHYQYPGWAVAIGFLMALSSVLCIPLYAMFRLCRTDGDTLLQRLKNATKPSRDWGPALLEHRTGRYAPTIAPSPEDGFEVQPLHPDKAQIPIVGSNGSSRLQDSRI
# Chain of UniProt P00690 (whole entry, looked up): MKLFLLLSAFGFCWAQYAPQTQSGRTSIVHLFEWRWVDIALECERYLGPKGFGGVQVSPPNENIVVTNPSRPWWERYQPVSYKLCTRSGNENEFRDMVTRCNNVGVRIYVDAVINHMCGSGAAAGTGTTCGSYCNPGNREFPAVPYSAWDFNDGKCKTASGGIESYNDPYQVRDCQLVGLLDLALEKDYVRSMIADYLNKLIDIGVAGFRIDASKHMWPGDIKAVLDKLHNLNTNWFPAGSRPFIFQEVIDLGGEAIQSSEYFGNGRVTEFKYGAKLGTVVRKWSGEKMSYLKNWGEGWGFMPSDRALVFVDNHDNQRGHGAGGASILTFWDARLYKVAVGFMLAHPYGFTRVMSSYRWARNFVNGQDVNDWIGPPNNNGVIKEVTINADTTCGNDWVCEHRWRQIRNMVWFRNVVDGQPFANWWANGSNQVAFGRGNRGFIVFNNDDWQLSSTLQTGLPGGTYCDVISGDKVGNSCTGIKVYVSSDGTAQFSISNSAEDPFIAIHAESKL
# Chain of UniProt P25297 (whole entry, looked up): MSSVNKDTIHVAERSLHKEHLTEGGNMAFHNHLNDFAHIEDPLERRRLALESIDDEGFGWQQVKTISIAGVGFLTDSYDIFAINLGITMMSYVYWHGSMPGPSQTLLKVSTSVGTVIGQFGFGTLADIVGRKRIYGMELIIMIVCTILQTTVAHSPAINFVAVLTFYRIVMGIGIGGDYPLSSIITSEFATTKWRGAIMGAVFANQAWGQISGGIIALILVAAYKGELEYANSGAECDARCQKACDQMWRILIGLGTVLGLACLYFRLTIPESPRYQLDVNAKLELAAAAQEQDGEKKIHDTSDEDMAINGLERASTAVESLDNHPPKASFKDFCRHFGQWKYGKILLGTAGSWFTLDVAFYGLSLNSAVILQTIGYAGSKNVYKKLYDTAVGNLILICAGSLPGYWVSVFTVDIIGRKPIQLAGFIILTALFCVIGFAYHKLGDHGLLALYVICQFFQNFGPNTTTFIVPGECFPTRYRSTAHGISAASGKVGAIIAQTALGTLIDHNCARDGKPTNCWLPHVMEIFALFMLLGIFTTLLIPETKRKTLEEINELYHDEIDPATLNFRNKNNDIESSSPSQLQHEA
# Chain of UniProt P01100 (whole entry, looked up): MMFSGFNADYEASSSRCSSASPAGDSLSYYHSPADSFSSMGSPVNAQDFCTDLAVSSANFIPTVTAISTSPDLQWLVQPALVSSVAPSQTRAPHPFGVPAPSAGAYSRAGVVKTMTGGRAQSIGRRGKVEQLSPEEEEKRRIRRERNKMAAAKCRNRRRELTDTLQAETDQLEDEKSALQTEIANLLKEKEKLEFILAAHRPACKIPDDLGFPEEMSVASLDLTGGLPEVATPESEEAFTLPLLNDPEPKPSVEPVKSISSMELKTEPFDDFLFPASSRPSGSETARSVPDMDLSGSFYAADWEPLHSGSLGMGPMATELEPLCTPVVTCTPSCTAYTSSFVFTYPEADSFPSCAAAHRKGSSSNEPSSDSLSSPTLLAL
# Chain of UniProt Q5NCS9 (whole entry, looked up): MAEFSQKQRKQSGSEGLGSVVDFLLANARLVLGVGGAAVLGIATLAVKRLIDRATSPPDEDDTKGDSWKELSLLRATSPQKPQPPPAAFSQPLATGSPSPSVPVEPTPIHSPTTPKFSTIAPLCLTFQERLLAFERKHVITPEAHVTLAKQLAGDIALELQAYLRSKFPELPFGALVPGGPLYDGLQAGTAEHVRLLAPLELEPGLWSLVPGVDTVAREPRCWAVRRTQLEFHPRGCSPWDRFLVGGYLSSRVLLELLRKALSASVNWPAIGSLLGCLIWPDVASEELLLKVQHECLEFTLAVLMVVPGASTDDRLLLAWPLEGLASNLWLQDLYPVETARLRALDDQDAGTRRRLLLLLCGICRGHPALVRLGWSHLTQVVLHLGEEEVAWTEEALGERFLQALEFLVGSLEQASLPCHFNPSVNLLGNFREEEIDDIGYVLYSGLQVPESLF
Substance,tested on,assay,system,setting,scale,measurement,value
TQLMPFGSLL,"HLA class I histocompatibility antigen, A alpha chain allele A*24:02",conformational ELISA,peptide,concentration not given,"baseline: positive control peptide, direction not given",binding score,1.2%
alpinetin,"Pancreatic alpha-amylase (AMY2, Sus scrofa, UniProt P00690)","enzyme activity, inhibitor",,"concentration not given, together with: CNP-G3 substrate",,inhibition,34.8% and 33.4%
NEKEELKSKKAELRNRIEQLKQKREQLKQKIANLRKEIEAYK,"Protein c-Fos (FOS, Homo sapiens, UniProt P01100)","heterodimer thermal denaturation, CD","peptide, 1 M GuHCl","4 µM total peptide, pH 7.4",,Tm,43.6 °C
DQVNTVGIPI,SCRIB PDZ3 domain,"binding, fluorescence polarization","peptide, solution",Scribble PDZ3 domain,,Kd,100 µM
V[Aib]IA (Aib2; Aib = CC(C)(N)C(=O)O),"Amyloid-beta precursor protein (APP, Homo sapiens, UniProt P05067)","aggregation, ThT fluorescence",,"24 h, 37 °C, Aβ to peptide ratio 1:5, together with: Aβ1–42 2 µM","baseline: Aβ1–42 alone, lower is stronger inhibition",ThT fluorescence,83.9%
LIMQLMPFGCL,"HLA class I histocompatibility antigen, A alpha chain allele A*02:01",conformational ELISA,peptide,concentration not given,"baseline: positive control peptide, direction not given",binding score,90.7%
Phosphate,"Inorganic phosphate transporter PHO84 (PHO84, Saccharomyces cerevisiae, UniProt P25297)","uptake, substrate",,"10 min, pH 7.4, together with: 1 mM NaCl",,Km,66 ± 30 µM
AEKKKSKKSV,SCRIB PDZ3 domain,"binding, fluorescence polarization","peptide, solution",Scribble PDZ3 domain,,Kd,100 µM
WVFEHPETL,"HLA class I histocompatibility antigen, A alpha chain allele A*02:01","HLA-A2 stabilization, peptide titration","peptide, T2","20 h, 37 °C, together with: human β2-microglobulin 100 ng/mL","baseline: HIVpol reference peptide, lower is stronger",relative affinity,3.26
BzATP,"P2X purinoceptor 7 (P2rx7, Rattus norvegicus, UniProt Q64663, I214A/Q143A)","ion current, agonist, two-electrode voltage clamp",Xenopus oocytes,11 µM,,normalized current,0.15 and 0.1 and 0.04
MANT-ADP,"Mitochondrial dynamics protein MID49 (Mief2, Mus musculus, UniProt Q5NCS9)",ligand,,"300 nM, mouse protein, varied concentration",,binding,no binding
VQLIMQLMPF,"HLA class I histocompatibility antigen, A alpha chain allele A*02:01",conformational ELISA,peptide,concentration not given,"baseline: positive control peptide, direction not given",binding score,1.1%
SYLSGANLNL,human HLA-A24 (A*2401),"peptide-MHC binding, iTopia initial binding","peptide, plate-bound HLA heavy chain","11 µM, 18 h, 21 °C",baseline: allele-matched positive control peptide,binding,"95 ,2"
AINPELLQL,"HLA class I histocompatibility antigen, A alpha chain allele A*02:01","HLA-A2 stabilization, peptide titration","peptide, T2","20 h, 37 °C, together with: human β2-microglobulin 100 ng/mL","baseline: HIVpol reference peptide, lower is stronger",relative affinity,53.1
6-carboxyfluorescein,"Solute carrier organic anion transporter family member 2A1 (SLCO2A1, Homo sapiens, UniProt Q92959, W565F)","compound uptake, substrate",HEK293F expressing SLCO2A1 W565F,50 µM,baseline: wild type,uptake,57.4% and 48%
IMQLMPFGCL,"HLA class I histocompatibility antigen, A alpha chain allele A*24:02",conformational ELISA,peptide,concentration not given,"baseline: positive control peptide, direction not given",binding score,26.4%
tannic acid,hyaluronidase (bovine testes),enzyme activity,,500 µg/mL,,inhibition,95.28 ± 0.5%
CTIL,Candida albicans protein farnesyltransferase,"peptide farnesylation, substrate",peptide,"pH 7.5, enzyme 50 to 100 nM, together with: C15-Alk 4 µM",,kcat,1.3 s⁻¹
QLIMQLMPF,"HLA class I histocompatibility antigen, A alpha chain allele A*02:01",conformational ELISA,peptide,concentration not given,"baseline: positive control peptide, direction not given",binding score,30.5%
LHLHGTGIQV,SCRIB PDZ3 domain,"binding, fluorescence polarization","peptide, solution",Scribble PDZ3 domain,,Kd,100 µM
GRTMQTARKSTGG,"Histone-lysine N-methyltransferase SETD7 (SETD7, Homo sapiens, UniProt Q8WTS6)","histone H3 methylation, inhibitor, western blot",peptide,"100 µM, 30 min, enzyme 500 nM, together with: full-length H3, SAM 30 µM",baseline: no inhibitor,H3K4me1 level,91 ± 12%
colistin,Acinetobacter pittii,broth microdilution,clinical isolate RKI 588/16,,,MIC,≤ 0.5 µg/mL
PRAEAEDSFL,SCRIB PDZ3 domain,"binding, fluorescence polarization","peptide, solution",Scribble PDZ3 domain,,Kd,100 µM
SYLSGANLNF,human HLA-A24 (A*2401),"peptide-MHC binding, iTopia initial binding","peptide, plate-bound HLA heavy chain","11 µM, 18 h, 21 °C",baseline: allele-matched positive control peptide,binding,92%
methyl-β-cyclodextrin,"Sodium- and chloride-dependent glycine transporter 1 (SLC6A9, Homo sapiens, UniProt P48067)","transport activity, [3H]glycine uptake",,"3.5 mg/mL, 1 min, together with: glycine 900 µM",higher = more transport,glycine uptake rate,54 a.u. and 66.7 a.u. and 67.2 a.u. and 67.1 a.u. and 68.7 a.u.
GSGAGRETEV,human MAGI1-3/6 PDZ construct (MBP fusion),automated holdup,"peptide, crude extract","concentration not given, corrected by standard peak, unit not given","baseline: biotin control resin, higher = stronger binding",binding intensity,0.219
Tannic acid,"Protein disulfide-isomerase A6 (PDIA6, Homo sapiens, UniProt Q15084)",disulfide reductase activity,,"20 µM, 15 min, together with: di-eosin-GSSG",,inhibition,inhibited
ITQLMPFGSLL,"HLA class I histocompatibility antigen, A alpha chain allele A*02:01",conformational ELISA,peptide,concentration not given,"baseline: positive control peptide, direction not given",binding score,5.5%
ELPHSVNSKL,SCRIB PDZ3 domain,"binding, fluorescence polarization","peptide, solution",Scribble PDZ3 domain,,Kd,100 µM
LIMQLMPFGC,"HLA class I histocompatibility antigen, A alpha chain allele A*02:01",conformational ELISA,peptide,concentration not given,"baseline: positive control peptide, direction not given",binding score,25%
11-deoxycorticosterone,CYP11B2 (human),"substrate binding, stopped-flow kinetic modelling",,"4-state branched induced-fit model, together with: equimolar adrenodoxin",,rate constant k-2,35.3 min⁻¹
ITQLMPFGSL,"HLA class I histocompatibility antigen, A alpha chain, allele A*01:01 (Homo sapiens, UniProt P04439)",conformational ELISA,peptide,concentration not given,"baseline: positive control peptide, direction not given",binding score,0%
milbemycin oxime,"CDR1 (Candida albicans, UniProt Q5ANA3)","binding, microscale thermophoresis",,2.44 nM,,fraction bound,-2.39%
GGWVEKETYY,human SCRIB PDZ3-4 tandem (MBP fusion),automated holdup,"peptide, purified PDZ protein","concentration not given, unit not given","baseline: biotin control resin, higher = stronger binding",binding intensity,-0.00221

# Excerpt of the above:
Substance,tested on,assay,system,setting,scale,measurement,value
MANT-ADP,"Mitochondrial dynamics protein MID49 (Mief2, Mus musculus, UniProt Q5NCS9)",ligand,,"300 nM, mouse protein, varied concentration",,binding,no binding
NEKEELKSKKAELRNRIEQLKQKREQLKQKIANLRKEIEAYK,"Protein c-Fos (FOS, Homo sapiens, UniProt P01100)","heterodimer thermal denaturation, CD","peptide, 1 M GuHCl","4 µM total peptide, pH 7.4",,Tm,43.6 °C
milbemycin oxime,"CDR1 (Candida albicans, UniProt Q5ANA3)","binding, microscale thermophoresis",,2.44 nM,,fraction bound,-2.39%
